Published values collected from several papers.
Compare with care: the assays were run in different laboratories. Values joined by “and” are separate records of one study, mostly repeats; a detail may differ. ± marks the error that the study gave. Values after ≈ are worked out from the molar mass of the structure shown.

SMILES | organism | assay | system | setting | scale | quantity | value
COC1=CC(c2ccc[nH]2)=NC1=CNC12CC3CC(CC(C3)C1)C2 | Plasmodium falciparum | – | HepG2, D6 | – | baseline: HepG2 IC50 over D6 IC50 | selectivity index | 1060
CC[C@H](C)[C@H](NC(=O)[C@H](CCCCN)NC(=O)[C@H](CCCCN)NC(=O)[C@H](CC(C)C)NC(=O)[C@H](CCCCN)NC(=O)[C@H](CCC(=O)O)NC(=O)[C@H](CCCCN)NC(=O)[C@@H](NC(=O)[C@H](CCCCN)NC(=O)[C@H](CC(N)=O)NC(=O)[C@H](CCCNC(=N)N)NC(=O)[C@H](Cc1ccccc1)NC(=O)[C@H](CCCCN)NC(=O)[C@H](CCCNC(=N)N)NC(=O)[C@H](CC(C)C)NC(=O)[C@H](CCCNC(=N)N)NC(=O)[C@H](CCCCN)NC(=O)[C@H](CCCNC(=N)N)NC(=O)[C@@H](N)CC(C)C)[C@@H](C)CC)C(=O)NCC(=O)N[C@@H](CCC(N)=O)C(=O)N[C@@H](CCCCN)C(=O)N[C@H](C(=O)N[C@@H](CCC(N)=O)C(=O)NCC(=O)N[C@@H](Cc1ccccc1)C(=O)N[C@H](C(=O)N1CCC[C@H]1C(=O)N[C@@H](CCCCN)C(=O)N[C@@H](CC(C)C)C(=O)O)C(C)C)[C@@H](C)CC | Salmonella | inhibition zone | DZ.3G | LB agar, overnight | – | lethal concentration | 2.92 µM
CC[C@@H](C)[C@@H](NC(=O)[C@@H](C)NC(=O)[C@@H](CCCCN)NC(=O)[C@@H](CC(C)C)NC(=O)[C@@H](CC(C)C)NC(=O)[C@H](NC(=O)[C@@H](CCCCN)NC(=O)[C@@H](CC(C)C)NC(=O)[C@@H](CCCCN)NC(=O)[C@@H](CCCCN)NC(=O)[C@@H](CCCCN)NC(=O)[C@@H](CCCCN)NC(=O)[C@@H](C)NC(=O)[C@@H](CCCCN)NC(=O)[C@@H](CO)NC(=O)[C@@H](Cc1ccccc1)NC(=O)[C@H](NC(=O)[C@@H](CCCCN)NC(=O)[C@@H](CC(C)C)NC(=O)[C@@H](Cc1ccccc1)NC(=O)[C@@H](CO)NC(=O)[C@@H](CCCCN)NC(=O)[C@@H](Cc1c[nH]c2ccccc12)NC(=O)[C@@H](CCCCN)NC(C)=O)[C@H](C)O)[C@H](C)O)C(=O)N[C@H](CO)C(=O)N[C@H](CCCCN)C(N)=O | Acinetobacter baumannii | – | 11 isolates | – | baseline: HC50 over geometric mean MIC | therapeutic index | 439
O=P(O)(OCc1cccc2ccccc12)Oc1c2c(c(OP(=O)(O)OCc3cccc4ccccc34)c3c1C1CC3c3cc4c(cc31)C1CC4c3ccccc31)C1CC2c2cc3c(cc21)C1CC3c2ccccc21 | measles virus | viral infection, flow cytometry | A549, vaccine strain GFP | 2 days, virus pre-incubated 30 min 37 °C | – | IC50 | 3000 nM
COC(=O)c1[nH]c(=O)c2cccnc2c1O | Human betaherpesvirus 5 | viral replication, inhibitor | HFF | 10 µM | – | inhibition | 11%
CCn1c2ccccc2c2cc(/C=N/NC(=O)Cn3ccc(=O)c4ccccc43)ccc21 | Alternaria solani | microbial growth | – | 50 µg/mL | – | inhibition | 46.2%
CN[C@@H]1[C@H](O)[C@H](NC)[C@H]2O[C@]3(O)[C@H](O[C@@H]2[C@H]1O)O[C@H](C)C[C@@]3(O)CNCc1ccc(OC(F)(F)F)cc1 | Haemophilus influenzae | – | ATCC 49247 | 40 µg per disc | – | inhibition zone diameter | 19 mm and 16 mm
CCCCCCCCCCCCCC(=O)N[C@@H](CC(C)C)C(=O)N[C@@H](CCCCN)C(=O)N[C@@H](CCCCN)C(N)=O | Staphylococcus epidermidis and Staphylococcus aureus | – | clinical strains | – | – | MIC range | 1.56 to 3.1 µM (≈ 0.931 to 1.85 µg/mL)
CC[C@H](C)[C@H](NC(=O)[C@H](Cc1c[nH]c2ccccc12)NC(=O)[C@H](CCCNC(=N)N)NC(=O)[C@H](CCC(N)=O)NC(=O)[C@@H](NC(=O)[C@H](Cc1c[nH]c2ccccc12)NC(=O)[C@H](CCCNC(=N)N)NC(=O)[C@H](CCCNC(=N)N)NC(=O)[C@H](CCSC)NC(=O)[C@H](C)NC(=O)[C@H](CCCCN)NC(=O)[C@@H]1CCCN1C(=O)[C@H](C)N)C(C)C)C(=O)N[C@@H](CCCNC(=N)N)C(=O)N[C@@H](CCCNC(=N)N)C(=O)N[C@@H](Cc1c[nH]c2ccccc12)C(=O)N[C@@H](CCCNC(=N)N)C(=O)N1CCC[C@H]1C(=O)N[C@@H](CCCCN)C(=O)N[C@H](C(=O)N[C@@H](Cc1ccccc1)C(=O)N[C@@H](CCC(N)=O)C(=O)N[C@H](C(=O)N[C@H](C(=O)NCC(=O)N[C@@H](CO)C(=O)N[C@@H](CO)C(=O)N[C@@H](C)C(N)=O)[C@@H](C)O)C(C)C)C(C)C | Malassezia furfur | – | DTO 383-D9 | 48 h | – | minimum fungicidal concentration | 0.3 µM (≈ 1.04 µg/mL)
CN(C)CCCOc1ccc2cc1Oc1ccc(cc1)CC1c3c(cc(OCCCN(C)C)c4c3Oc3cc5c(cc3O4)CCN(C)C5C2)CCN1C (stereo not shown) | Plasmodium berghei | – | ANKA, mice | intraperitoneal, 20 mg/kg daily for 4 days | baseline: untreated | survival increase | 5 days
CC[C@H](C)[C@H](NC(=O)[C@H](CCCCN)NC(=O)[C@H](CCCCN)NC(=O)[C@H](CC(C)C)NC(=O)[C@H](CCCCN)NC(=O)[C@H](CCC(=O)O)NC(=O)[C@H](CCCCN)NC(=O)[C@@H](NC(=O)[C@H](CCCCN)NC(=O)[C@H](CC(N)=O)NC(=O)[C@H](CCCNC(=N)N)NC(=O)[C@H](Cc1ccccc1)NC(=O)[C@H](CCCCN)NC(=O)[C@H](CCCNC(=N)N)NC(=O)[C@H](CC(C)C)NC(=O)[C@H](CCCNC(=N)N)NC(=O)[C@H](CCCCN)NC(=O)[C@H](CCCNC(=N)N)NC(=O)[C@H](CC(C)C)NC(=O)CN)[C@@H](C)CC)C(=O)NCC(=O)N[C@@H](CCC(N)=O)C(=O)N[C@@H](CCCCN)C(=O)N[C@H](C(=O)N[C@@H](CCC(N)=O)C(=O)NCC(=O)N[C@@H](Cc1ccccc1)C(=O)N[C@H](C(=O)N1CCC[C@H]1C(=O)N[C@@H](CCCCN)C(=O)N[C@@H](CC(C)C)C(=O)N[C@@H](C)C(=O)N1CCC[C@H]1C(=O)N[C@@H](CCCNC(=N)N)C(=O)N[C@H](C(=O)N[C@@H](CC(=O)O)C(=O)N[C@@H](Cc1ccc(O)cc1)C(=O)O)[C@@H](C)O)C(C)C)[C@@H](C)CC | Micrococcus luteus | inhibition zone | CGMCC 1.029 | – | – | lethal concentration | 0.94 µM
O=C1C=C(N(Cc2ccc(Cl)nc2)CC(F)F)CO1 | Myzus persicae | leaf-dip bioassay | – | 72 h, adults | baseline: LC50 over susceptible strain | resistance ratio | 2
CC[C@H](C)[C@H](NC(=O)[C@H](CCCCN)NC(=O)[C@H](CCCCN)NC(=O)[C@H](CC(C)C)NC(=O)[C@H](CCCCN)NC(=O)[C@H](CCC(=O)O)NC(=O)[C@H](CCCCN)NC(=O)[C@@H](NC(=O)[C@H](CCCCN)NC(=O)[C@H](CC(N)=O)NC(=O)[C@H](CCCNC(=N)N)NC(=O)[C@H](Cc1ccccc1)NC(=O)[C@H](CCCCN)NC(=O)[C@H](CCCNC(=N)N)NC(=O)[C@H](CC(C)C)NC(=O)[C@H](CCCNC(=N)N)NC(=O)[C@H](CCCCN)NC(=O)[C@H](CCCNC(=N)N)NC(=O)[C@H](CC(C)C)NC(=O)[C@@H](N)CC(C)C)[C@@H](C)CC)C(=O)NCC(=O)N[C@@H](CCC(N)=O)C(=O)N[C@@H](CCCCN)C(=O)N[C@H](C(=O)N[C@@H](CCC(N)=O)C(=O)NCC(=O)N[C@@H](Cc1ccccc1)C(=O)N[C@H](C(=O)N1CCC[C@H]1C(=O)N[C@@H](CCCCN)C(=O)N[C@@H](CC(C)C)C(=O)N[C@H](C(=O)N1CCC[C@H]1C(=O)N[C@@H](CCCNC(=N)N)C(=O)N[C@H](C(=O)N[C@@H](CCC(=O)O)C(=O)N[C@@H](CO)C(=O)O)[C@@H](C)O)C(C)C)C(C)C)[C@@H](C)CC | Salmonella | inhibition zone | DZ.3G | LB agar, overnight | – | lethal concentration | 3.7 µM
CC(C)C[C@H](NC(=O)[C@H](CC(=O)O)NC(=O)[C@H](CC(C)C)NC(=O)[C@H](CC(=O)O)NC(=O)CNC(=O)[C@@H]1CCCN1C(=O)[C@H](CCCCN)NC(=O)[C@H](CC(C)C)NC(=O)[C@H](Cc1c[nH]c2ccccc12)NC(=O)[C@@H]1CCCN1)C(=O)O | dengue virus 2 | – | LLC-MK2, New Guinea C | maximal non-toxic, 24 h | baseline: untreated | E protein reduction | 59.1 ± 11.2%
CN[C@@H]1[C@H](O)[C@H](NC)[C@H]2O[C@]3(O)[C@H](O[C@@H]2[C@H]1O)O[C@H](C)C[C@@]3(O)CNCc1ccc(Cl)cc1 | Haemophilus influenzae | – | ATCC 49247 | 40 µg per disc | – | inhibition zone diameter | 15 to 16 mm
CCCCc1ccc(-c2nc(C)c(C(C)=NNC(=N)N)s2)cc1 | Staphylococcus aureus | – | NRS107 MRSA | – | – | MBC | 2.6 µg/mL (≈ 7.89 µM)
CON(C(=O)c1cn(C)nc1C(F)F)C(C)Cc1c(Cl)cc(Cl)cc1Cl (stereo not shown) | Exserohilum turcicum | microbial growth | – | 1.56 µg/mL | – | inhibition | 100%
CC(CCC(=O)[O-])C1CCC2C3C(O)CC4CC(O)CCC4(C)C3CCC12C.C[N+](C)(C)CC(O)CC(=O)O (stereo not shown) | Candida albicans | – | TISTR 5554 | 1 mg per disc, 18 to 24 h, 37 °C, 6 mm disc | – | inhibition zone | inactive
Nc1ccn(C[C@@H](CO)OCP(=O)(O)OCCCS(=O)(=O)CCCCCCCCCCCCC2CCC2)c(=O)n1 | Betapolyomavirus hominis | qPCR | Gardner | – | baseline: CC50 over EC50 | selectivity index | 8
